Assay results collected from several papers.
Numbered parts are unrelated; each lists some results of a single study. Positions count from the first letter of the parent shown.

Set 1
Target: Fragile X messenger ribonucleoprotein 1, C-terminal low-complexity region (Fmr1, Mus musculus, UniProt P35922)
Method: RNA Bind-n-Seq
Molecule type: RNA
Sample: in vitro
Concentration: 200 nM
Setting: whole 134-nt RNA, ends assumed
With: 150 mM LiCl
Baseline: input library
Direction: higher = stronger binding
Endpoint: log2 enrichment
Each molecule: 7-deaza-guanosine replaces G
Constant ends, left off below: GGGAGUUCUACAGUCCGACGAUC … UGGAAUUCUCGGGUGUCAAGG
Sequence = UUGUCCCGGAUGGGCAGCCUGCGGGCUCCCGUGGACGAGGACCGCCUGUCCCCGCUGGUGGCGGCCGACUCGCUCCUGGAGCAUGUGCGG; value = -1.7
Sequence = UCCUGUGCUACACAUCGUAUGUACCGAAUCGGGGUUUGGGGAAAAAGGGGAAAAAGGGGAAAGUAUUAUGUUACGCCGUUCGGAUCUGCA; value = -0.496
Sequence = UCCUGUGCUACACAUCGUAUGUACCGAAUCAAACCCCCCCAAACCCAAAUUUUUUUAAAAAAGUAUUAUGUUACGCCGUUCGGAUCUGCA; value = 1.6
Sequence = AAGUCCUGUGCUACACAUCGUAUGUACCGAAUCGGGGAAAGGGAAAGGGAAAGGGGAAAGUAUUAUGUUACGCCGUUCGGAUCUGCACUU; value = 0.313
Sequence = CAAGUCCUGUGCUACACAUCGUAUGUACCGAAUCGGUUUGGGGUUUGGGGUUUGGAAAGUAUUAUGUUACGCCGUUCGGAUCUGCACUUC; value = -2.09
Sequence = UAACUUUAGAGGAGGAUCUGAUGGAUAUGGCAGUGGACGUGGAUUUGGGGAUGCCUAUAAUGGGUAUGGAGGAGGACCUGGAGGUGGCAA; value = -0.815
Sequence = UGGGAGGUGGAUUUUGUUUAUUUUUUUAGCUCAUUCCCAGGGGUGGGAAUUUUUUUUUAAUAUGUGUCAUGAAUAAAGUUGUUUUUGAAA; value = -0.166
Sequence = GUCCUGUGCUACACAUCGUAUGUACCGAAUCGGUUUUUGGGGUUUUUGGGGUUUUUGGGAAAGUAUUAUGUUACGCCGUUCGGAUCUGCA; value = -0.588

Set 2
Target: CCND1, cyclin fold, Cln2 fusion (human)
Method: yeast growth competition, sequencing
Sample: yeast
Setting: weak parent motif
Baseline: not given
Direction: higher = stronger binding
Endpoint: normalised enrichment score
Parent: REV3L docking peptide (human); PPVIIKYIIINRF
Variant = F13A; value = 0.0785
Variant = V3A; value = 0.528
Variant = I4A; value = -0.0456
Variant = I10A; value = 0.487
Variant = R12A; value = 0.00587
Variant = P2A; value = 0.279
Variant = P1A; value = -0.104

Set 3
Target: Histone acetyltransferase KAT6A, winged helix 2, GST fusion (KAT6A, Homo sapiens, UniProt Q92794, residues 85-181)
Method: protein binding microarray
Molecule type: double-stranded DNA, one strand shown
Sample: in vitro
Concentration: not given
Setting: 8-mer, flanks averaged, mean of 2 arrays, mostly near background
Baseline: not given
Direction: higher = stronger binding
Endpoint: E-score
Target sequence (chain): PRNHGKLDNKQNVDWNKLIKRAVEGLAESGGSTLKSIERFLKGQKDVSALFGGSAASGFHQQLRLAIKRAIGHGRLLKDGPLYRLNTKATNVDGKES
Sequence = GACAAATA; value = -0.124
Sequence = ACTACAAC; value = -0.0311
Sequence = ACCATAGC; value = -0.133
Sequence = AAGGGGGG; value = -0.0711
Sequence = ACTCAAAT; value = -0.0554
Sequence = CTGGCTTC; value = 0.104
Sequence = CGGTTTCA; value = -0.0067
Sequence = GATTTGAA; value = 0.0418
Sequence = CATGCAGG; value = -0.116
Sequence = ACAAACCG; value = -0.0394
Sequence = ATTGTCAC; value = 0.035
Sequence = GCTTGGCC; value = 0.155
Sequence = AAAGGTGA; value = -0.103
Sequence = ACCAAGTA; value = -0.032
Sequence = GGGCCAGA; value = 0.14
Sequence = ATCAAACA; value = 0.121
Sequence = CCGTGAGA; value = -0.0433
Sequence = AGGCCAAG; value = -0.0489
Sequence = AAACCGTG; value = -0.0321
Sequence = CCTAACAA; value = 0.0805
Sequence = ACCCTAGA; value = 0.00749
Sequence = AATCGGTA; value = -0.112
Sequence = AATCTACT; value = 0.0353

Set 4
Target: Myc proto-oncogene protein, bHLH-zipper, MAX partner unstated (MYC, Homo sapiens, UniProt P01106, residues 368-449)
Chain of UniProt P01106 (368-449, looked up): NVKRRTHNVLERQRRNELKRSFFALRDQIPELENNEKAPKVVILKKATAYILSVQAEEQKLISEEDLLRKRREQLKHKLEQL
Method: protein-binding microarray
Molecule type: double-stranded DNA, one strand shown
Sample: in vitro
Concentration: not given
Setting: k-mer, scored over probes, only values ≥0.25
Direction: higher = stronger binding
Endpoint: E-score
Sequence = ACGCCGCG; value = 0.304
Sequence = ATGGTGGG; value = 0.255
Sequence = CATGAGGG; value = 0.434
Sequence = AGCGTGGA; value = 0.357
Sequence = CAGGTGAC; value = 0.347
Sequence = CGCACACC; value = 0.306
Sequence = AGGCGGGG; value = 0.363
Sequence = CCCGCCGC; value = 0.306
Sequence = AACAGGTG; value = 0.346
Sequence = ACGGCATG; value = 0.416
Sequence = ACCCACAT; value = 0.269

Set 5
Molecule: PhoQ, residues 284 288 289 292 302 303 SSCLAV
Method: Sort-seq
Refers to: YFP reporter
Sample: E. coli
Setting: PhoQ-PhoP variant library
With: 10 µM Mg2+
Baseline: high Mg2+ state
Direction: higher = stronger signaling
Endpoint: fold induction
target = PhoP, residues 12 14 15 18 19 TPWTL (Escherichia coli, UniProt P23836); value = 1.84
target = PhoP, residues 12 14 15 18 19 NFFVT (Escherichia coli, UniProt P23836); value = 14.8
target = PhoP, residues 12 14 15 18 19 LHHYF (Escherichia coli, UniProt P23836); value = 6.93
target = PhoP, residues 12 14 15 18 19 VGHWL (Escherichia coli, UniProt P23836); value = 7.82

Set 6
Target: ABI1, truncated, D143A, DHFR fusion (Arabidopsis thaliana)
Method: DHFR PCA, deep sequencing
Sample: yeast
Setting: methotrexate growth selection, single substitutions
With: (+)-ABA 0.0091 µM
Baseline: wild-type fitted maximum
Direction: higher = stronger binding
Endpoint: relative binding score
Parent: PYL1, truncated, DHFR fusion (Arabidopsis thaliana); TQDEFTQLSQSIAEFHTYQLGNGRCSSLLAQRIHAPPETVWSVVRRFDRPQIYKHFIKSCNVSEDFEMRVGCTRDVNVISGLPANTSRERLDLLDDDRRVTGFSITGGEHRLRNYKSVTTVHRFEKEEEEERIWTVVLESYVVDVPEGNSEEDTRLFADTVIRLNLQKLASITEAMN; partner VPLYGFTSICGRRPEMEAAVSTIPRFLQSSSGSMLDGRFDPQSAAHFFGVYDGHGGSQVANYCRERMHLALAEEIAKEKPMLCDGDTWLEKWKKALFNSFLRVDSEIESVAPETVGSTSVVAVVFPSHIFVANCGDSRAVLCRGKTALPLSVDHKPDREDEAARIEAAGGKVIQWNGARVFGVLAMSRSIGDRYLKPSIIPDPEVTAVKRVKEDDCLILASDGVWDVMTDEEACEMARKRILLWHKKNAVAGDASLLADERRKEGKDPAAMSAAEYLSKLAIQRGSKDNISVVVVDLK
Variant = Q19C; value = 6.75%
Variant = D75A; value = 4.29%
Variant = S140C; value = 5.79%
Variant = S63I; value = 5.99%
Variant = S26W; value = 2.19%
Variant = R123W; value = -5.29%
Variant = V70I; value = 20.5%
Variant = L169I; value = -2.04%
Variant = F15Y; value = 29.6%
Variant = R24F; value = -0.686%
Variant = G71Q; value = 1.06%
Variant = L82T; value = 10.8%
Variant = V40L; value = -1.51%
Variant = I105L; value = -0.385%
Variant = G108P; value = -5.36%
Variant = L29R; value = -0.465%
Variant = T101N; value = 1.16%

Some of these lines once more (set 1):
Sequence = UGGGAGGUGGAUUUUGUUUAUUUUUUUAGCUCAUUCCCAGGGGUGGGAAUUUUUUUUUAAUAUGUGUCAUGAAUAAAGUUGUUUUUGAAA; value = -0.166
Sequence = AAGUCCUGUGCUACACAUCGUAUGUACCGAAUCGGGGAAAGGGAAAGGGAAAGGGGAAAGUAUUAUGUUACGCCGUUCGGAUCUGCACUU; value = 0.313
Sequence = UCCUGUGCUACACAUCGUAUGUACCGAAUCGGGGUUUGGGGAAAAAGGGGAAAAAGGGGAAAGUAUUAUGUUACGCCGUUCGGAUCUGCA; value = -0.496
Sequence = UCCUGUGCUACACAUCGUAUGUACCGAAUCAAACCCCCCCAAACCCAAAUUUUUUUAAAAAAGUAUUAUGUUACGCCGUUCGGAUCUGCA; value = 1.6
Sequence = UAACUUUAGAGGAGGAUCUGAUGGAUAUGGCAGUGGACGUGGAUUUGGGGAUGCCUAUAAUGGGUAUGGAGGAGGACCUGGAGGUGGCAA; value = -0.815
Sequence = UUGUCCCGGAUGGGCAGCCUGCGGGCUCCCGUGGACGAGGACCGCCUGUCCCCGCUGGUGGCGGCCGACUCGCUCCUGGAGCAUGUGCGG; value = -1.7
Sequence = CAAGUCCUGUGCUACACAUCGUAUGUACCGAAUCGGUUUGGGGUUUGGGGUUUGGAAAGUAUUAUGUUACGCCGUUCGGAUCUGCACUUC; value = -2.09
Sequence = GUCCUGUGCUACACAUCGUAUGUACCGAAUCGGUUUUUGGGGUUUUUGGGGUUUUUGGGAAAGUAUUAUGUUACGCCGUUCGGAUCUGCA; value = -0.588
